Experimental data gathered from unrelated publications.
Each numbered part is a random draw from the data of one study; scales do not carry over between parts.

Set 1
Target: Interferon regulatory factor 5, full length, phosphomimetic (IRF5, Homo sapiens, UniProt Q13568-2, residues 1-514, K96S/S451D/S453D/S456D/S462D)
Method: protein-binding microarray
Molecule type: double-stranded DNA, one strand shown
Medium: in vitro
Concentration: 250 nM
Setting: 60-bp whole probe
Added: salmon DNA 0.4 mg/ml
Baseline: random background probes
Reading: higher = stronger binding
Constant ends, left off below: GCCTAGCAC … GTCTTGATTCGCTTGACGCTGCTG
Oligonucleotide | log fluorescence [z-score]
CTGGGGGCAGTTTCATGGCCGTGCTAG | 0.747
TTAGGTTTCGGTTCTGGTTAGTGCTAG | 9.79
GACGGACTGGACACTGCGGACGTGCTA | -0.672
TCACCAATCAGGACTCAGACTGTGCTA | 0.0718
GACGATATCAGTATCGAGGCGTGCTAG | 2.72
TTTGGTCTCGGTATCGGTTAGTGCTAG | 6.3
TTAGGACTCGGGACTGGGTTAGTGCTA | -0.454
GAGGATCTCAGTTTCGAGACGTGCTAG | 4.59
TTTTTTTTTTTTTTTTGTATGTGCTAG | 1.61
TTAGGTATCCTTATCCTTTTGTGCTAG | 0.349
TTAGGTATCGGACTGGGTCAGTGCTAG | 1.5
TTCTGAAGCAGAGCCCTGTTGTGCTAG | -0.287
TGGTCTTTCTGTTTTCTCCAGTGCTAG | 5.17
TTAGGACTGGATACTGGGTTAGTGCTA | -0.108
CTACGTCTGATTTTGCTTTCGTGCTAG | 2.41
CTAGAACTGAGTTTCGATTAGTGCTAG | 9.36
GACGGTCTCGGAATCGGGACGTGCTAG | 0.144
TGATTGGTTGAACATGAACTGTGCTAG | -0.132
GACGGACTGCGTTTCGGGACGTGCTAG | 1.18

Set 2
Target: Phosphate system positive regulatory protein PHO4, full length, GST-tagged (PHO4, Saccharomyces cerevisiae, UniProt P07270, residues 1-312)
Method: competition protein-binding microarray
Molecule type: double-stranded DNA, one strand shown
Medium: in vitro
Concentration: 2 µM
Setting: whole 60-bp probe, lowest competitor level
Added: Cbf1 competitor, 0.05 µM
Reading: higher = stronger binding
Construct (chain): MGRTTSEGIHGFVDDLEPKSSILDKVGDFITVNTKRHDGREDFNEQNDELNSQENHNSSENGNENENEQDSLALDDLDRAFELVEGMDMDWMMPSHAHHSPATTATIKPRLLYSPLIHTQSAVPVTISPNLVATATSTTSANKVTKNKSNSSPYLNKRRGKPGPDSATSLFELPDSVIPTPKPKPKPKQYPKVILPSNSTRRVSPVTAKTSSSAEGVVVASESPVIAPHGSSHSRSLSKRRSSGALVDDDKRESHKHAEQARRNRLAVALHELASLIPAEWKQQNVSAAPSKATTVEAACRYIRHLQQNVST
Oligonucleotide | fluorescence intensity [a.u.]
TGCGCAACAACTTGATTAGTGGGTGTATGTCTAGAAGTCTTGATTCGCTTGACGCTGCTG | 3980
TTACTTCAAAATCACCACGTGTTGAAGAGACTTCAAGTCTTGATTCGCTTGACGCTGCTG | 18700
TGCGCGTTTTTCTGGGACGTGCTAACAAACGAGAAAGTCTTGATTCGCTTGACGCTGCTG | 7810
CTCAAACGAAGAAAGCACGTGAGGATTGAAGAAAAAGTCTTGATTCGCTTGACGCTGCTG | 16700
TGGTTGCCAGCTCGCTATGTGACGGGCTTAAAGTACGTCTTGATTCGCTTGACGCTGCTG | 3680
TGCTCTCCCCCCTTCCTCGTGCTTTGCGACTGTTTAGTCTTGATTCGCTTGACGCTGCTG | 9140
GTAACTTTACCGTCCCACGTGTCCAAAGGTACGCTGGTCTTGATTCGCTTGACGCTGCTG | 19200
GTATTAGGTTGTCTGATCATGACGCTGTCCCCTACGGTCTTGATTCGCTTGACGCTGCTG | 4630
AAATTACTAAGTTGAACTGTGGGTGACGCCGTATGAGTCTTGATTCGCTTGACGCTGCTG | 3850
GGGTTGAACGACCGTCACATGTGTGCGGATGTAGTTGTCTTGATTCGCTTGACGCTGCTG | 9920
CGCTAGTACTTTATTCTCGTGGTGAGCATTTGAAGTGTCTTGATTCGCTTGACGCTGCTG | 8400
TAATATAACGCCTTTATCGTGGGACTCTTATTAACCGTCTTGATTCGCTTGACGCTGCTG | 5010
AAAGCGGTAATTTTTCACGTGCTATCAAATATCTATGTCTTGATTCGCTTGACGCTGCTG | 14000
CCAGGCCTCCAAGCCCACGTGACAACAAGCTCCGCCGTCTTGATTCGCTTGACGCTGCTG | 17200
AACTGGCATAATCGAGTTGTGACGAACAAACTTAACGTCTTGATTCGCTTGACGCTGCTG | 3790
CTTCTGTAAATTTGAGCAGTGGGTGGACGCGCCCCGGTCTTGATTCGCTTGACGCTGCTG | 4220
CTTTCCCGATCTTGGGGCGTGGGTGTAGCACATTTGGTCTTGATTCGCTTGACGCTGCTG | 11000
AAATTACTAAGTTGTAGAGTGGGTGACGCCGTATGAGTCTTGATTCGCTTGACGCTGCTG | 4300
CATCTGCCATTCAACAACGTGCCAGCAGGCCTATTAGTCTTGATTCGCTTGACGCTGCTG | 14300

Set 3
Target: Sal-like protein 4, full length isoform A (SALL4, Homo sapiens, UniProt Q9UJQ4, residues 1-1053)
UniProt Q9UJQ4, sequence (whole entry, looked up): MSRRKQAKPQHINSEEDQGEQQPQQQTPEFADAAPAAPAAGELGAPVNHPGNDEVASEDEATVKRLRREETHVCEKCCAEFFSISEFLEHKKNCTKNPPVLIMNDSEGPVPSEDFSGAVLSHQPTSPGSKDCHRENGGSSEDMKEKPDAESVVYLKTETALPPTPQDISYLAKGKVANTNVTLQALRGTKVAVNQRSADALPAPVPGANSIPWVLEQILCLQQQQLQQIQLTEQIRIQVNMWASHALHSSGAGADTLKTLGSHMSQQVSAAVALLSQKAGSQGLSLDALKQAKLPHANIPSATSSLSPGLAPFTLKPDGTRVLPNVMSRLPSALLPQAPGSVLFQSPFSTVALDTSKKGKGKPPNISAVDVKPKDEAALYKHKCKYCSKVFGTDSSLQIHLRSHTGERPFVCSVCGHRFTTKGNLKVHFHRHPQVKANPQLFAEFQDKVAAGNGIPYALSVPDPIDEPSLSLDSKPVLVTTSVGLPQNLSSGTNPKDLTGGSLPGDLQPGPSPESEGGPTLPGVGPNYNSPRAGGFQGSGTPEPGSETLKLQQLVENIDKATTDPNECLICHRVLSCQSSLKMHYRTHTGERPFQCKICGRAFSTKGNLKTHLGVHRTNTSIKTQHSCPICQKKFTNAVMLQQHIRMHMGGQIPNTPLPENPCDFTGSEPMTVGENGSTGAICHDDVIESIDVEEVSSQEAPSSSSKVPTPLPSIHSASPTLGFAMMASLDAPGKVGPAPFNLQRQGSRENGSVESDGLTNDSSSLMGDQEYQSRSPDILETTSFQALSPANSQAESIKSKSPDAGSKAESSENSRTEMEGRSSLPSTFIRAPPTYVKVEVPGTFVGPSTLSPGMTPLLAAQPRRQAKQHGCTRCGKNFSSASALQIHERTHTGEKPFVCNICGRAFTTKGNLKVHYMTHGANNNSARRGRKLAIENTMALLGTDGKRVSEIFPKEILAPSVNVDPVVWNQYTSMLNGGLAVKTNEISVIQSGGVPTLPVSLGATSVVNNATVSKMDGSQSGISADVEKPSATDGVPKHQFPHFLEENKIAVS
Method: universal PBM
Molecule type: double-stranded DNA, one strand shown
Medium: in vitro
Concentration: 600 nM
Setting: 8-mer, flanks averaged, mean of replicates
Reading: higher = stronger binding
Oligonucleotide | E-score
GGTCACTA | -0.0257
CAGCTGGA | -0.152
ACGCAAGT | -0.0992
ACTTGGGC | -0.186
TCGGCCGA | -0.111
CTTCCCGA | -0.105
AAGTGGGA | 0.196
ACACGTCA | -0.0331
GCGTAAGA | 0.0153
GTTAGCGA | 0.172
CTGTAAAC | 0.277
GCTCTGTA | 0.0183
ACGGATTC | -0.0328
ATGTTCAG | 0.0908
CATGCTAG | 0.00738
GCGCCCAC | -0.316
AACTTCAC | 0.134
AGAGACGG | -0.17
ATGATACC | 0.174
CAGCGTCA | -0.221

Set 4
Target: RNA binding protein fox-1 homolog 2, RRM domain, GST-SBP tag (RBFOX2, Homo sapiens, UniProt O43251-10, residues 100-194)
Method: RNA Bind-n-Seq
Molecule type: RNA
Medium: in vitro
Concentration: 365 nM
Setting: natural RNA segment, single round, ends assumed
Baseline: no-protein control
Reading: higher = stronger binding
Construct (chain): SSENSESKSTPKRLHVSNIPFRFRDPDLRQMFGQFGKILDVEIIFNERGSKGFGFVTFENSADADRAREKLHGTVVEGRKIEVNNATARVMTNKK
Oligonucleotide | RBNS enrichment (R)
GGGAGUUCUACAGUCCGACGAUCCAAAGGGCCACUGACCUGGCAAGCAUUUACUUCUACUUCACCAAAGAUGCCCAGAGUGAUGGGUCAGCCCUUCUGCUCAAGCAGGCCGUGCCUGGCUGGUGCCAUUCAGAUGGAAUUCUCGGGUGCCAA | 0.428
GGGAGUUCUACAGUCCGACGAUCGGGCACUUAAAAGUUCUGUUAUUUUUGUUUGGUUUUGUUAUUUCAGUCCUCAGUUAAGGCAAGAAUGCAUGUGUUUCUUAAGAAUGAGUACUCUGCGUUGAUGUUUAUGAUGGAAUUCUCGGGUGCCAA | 28
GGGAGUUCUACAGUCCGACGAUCCUGUAUAGCAUGGAAGUCAACUGCAGCCCAUAUCACACCUGGUCCUGGGAAUGUGUCCUCAUCACUUUAAUUGCAGAGUUACUGGGAAAUCAUUGUGCUACUCUGUGGAUUGGAAUUCUCGGGUGCCAA | 0.424
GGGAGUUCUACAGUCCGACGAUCAGGUCUCCACCUUCAUCAAGGCUCAAGUGAGUGAGGGCAAAGGACGCCUCAUGCCUGGGCAGGACCCUGAGAAAACCAUAGGAGACAUGUUCCAGAACCAGGACCGCAACUGGAAUUCUCGGGUGCCAA | 0.741
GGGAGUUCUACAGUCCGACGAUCUAUUUGACUUUGGAAUUUUGCAUUCGAGGUAUACUGUCAUUUCUUGAAAUCUUUUUCUCGUUUAGUUGCUCUGUGGGAAAUGUGAGGAAGCCUAAGUUUGUAUUUGUAAAUGGAAUUCUCGGGUGCCAA | 1.09
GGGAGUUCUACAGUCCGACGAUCUUUUGUAACAGUGACCCUGUCUUAAGUCUUUCAGAUCUCUUUGCUUUGAAACUUCGUCGAUUCCAUUGUGAUAAGCGCACAAACAGCACUGUUGGUAACCGGUACUACUUUGGAAUUCUCGGGUGCCAA | 0.241
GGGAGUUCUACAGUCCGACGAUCGAAAUAGUCUUUGCUCAUUCUUGGGAUGCCUGAACGCUAGCUAAGCAUCUGAUAAACGCUGUGGAGACUUAGCCCAACACAAGCUCCAGUGUCUGUAGGAGUCGGCCUCAUGGAAUUCUCGGGUGCCAA | 0.548
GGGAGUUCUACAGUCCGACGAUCCAAAUCUGUGUUGGGGUUCCAGUGCAACUGAGAAGGAAAACAAUCCAGCUAUUGAAAGCAACAACCUAAUGGGUCCAUUUGGUCCCCCUGGGUCAUUUUAACAAGGGUGAUGGAAUUCUCGGGUGCCAA | 0.251

Set 5
Target: Histone acetyltransferase KAT6A, winged helix 1, GST fusion (KAT6A, Homo sapiens, UniProt Q92794, residues 1-85)
Method: protein binding microarray
Molecule type: double-stranded DNA, one strand shown
Medium: in vitro
Concentration: not given
Setting: 8-mer, flanks averaged, mean of 2 arrays, mostly near background
Baseline: not given
Reading: higher = stronger binding
Target sequence (chain): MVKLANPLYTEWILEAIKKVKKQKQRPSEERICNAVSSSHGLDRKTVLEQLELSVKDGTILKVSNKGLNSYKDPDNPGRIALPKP
Oligonucleotide | E-score
CTCATCTA | -0.233
CGACTCTC | -0.102
CTAATAAC | -0.0671
GTACCAAA | -0.188
CATAGCCG | 0.262
ATAATAAA | -0.02
CATTGAGA | 0.064
ATGCATCC | -0.15
GGGTAATA | -0.00206
AGCGCGAA | 0.317
ATACCCAT | -0.186
TAAACATA | -0.113
CACTTCCG | 0.122
CCCGCGAG | 0.353
AACACGTT | -0.102
ATGTCATG | -0.187
CTGCGGGC | 0.238
CTGGTCAA | -0.165
